Published values pooled from the literature.
Compare with care: the assays were run in different laboratories.

Structure (SMILES)	assay	test system	setting	adverse event incidence [%]
Cc1c(C(=O)O)ccc2c3n(nc12)[C@@H]1[C@H](C3)N(CC2CC2)[C@@]2(C(=O)Nc3cc(Cl)ccc32)[C@H]1c1cccc(Cl)c1F	phase Ia trial, refers to: Alopecia	cancer patients	oral, dose not given, all patients grade ≥3	0
Cc1c(Cl)c(C)[n+]([O-])c(Cl)c1-c1noc(-c2cc(O)c(O)c([N+](=O)[O-])c2)n1	refers to: Mild severity	healthy Chinese subjects	oral, 50 mg, 10 days	13.3
NCCONC(=O)[C@@H]1CC[C@@H]2CN1C(=O)N2OS(=O)(=O)O	refers to: urinary red blood cells positive	healthy Chinese men	intravenous, 1 g, treatment-emergent	0
CC(=O)O[C@H]1C(=O)[C@@]2(C)[C@H]([C@H](OC(=O)c3ccccc3)[C@]3(O)C[C@H](OC(=O)[C@H](O)[C@@H](NC(=O)c4ccccc4)c4ccccc4)C(C)=C1C3(C)C)[C@]1(OC(C)=O)CO[C@@H]1C[C@@H]2O	refers to: blood alkaline phosphatase increased	patients with advanced solid tumours	intravenous, dose not given, grade 3 and 4, possibly related to drug	2
CCO[C@H]1CCN(Cc2c(OC)cc(C)c3[nH]ccc23)[C@H](c2ccc(C(=O)O)cc2)C1	refers to: dry throat	PNH patients with active haemolysis	oral, 200 mg, extension phase	0
C[C@H]1[C@H]2N(C(=O)CN(C)N2C(=O)NCc2ccccc2)[C@@H](Cc2ccc(OP(=O)(O)O)cc2)C(=O)N1Cc1cccc2cccnc12	refers to: Diarrhoea	HIV/HCV haemophilia cirrhosis	concentration not given, phase I trial	20
FC(F)(F)c1ccc(CNc2ccc(Cc3c[nH]c4ncc(Cl)cc34)cn2)cn1	refers to: neutropenia	patients with advanced solid tumours	oral, dose not given, grade 1 and 2, possibly related to drug	17
O=C1CCc2ccc(OCCCCN3CCN(c4cccc(Cl)c4Cl)CC3)cc2N1	refers to: Akathisia	genotyped patients, CYP2D6 intermediate metabolizers	dose not given, long-acting oral or depot	8.2
